Results from different studies.
Parts stem from different laboratories: compare values within a part only. Positions count from the first letter of the parent shown.

Block 1 — method: RNA Bind-n-Seq; molecule type: RNA; sample: in vitro; tested at: 365 nM; relative to: no-protein control; direction: higher = stronger binding; measurement: RBNS enrichment (R)
Target: RNA binding protein fox-1 homolog 2, RRM domain, GST-SBP tag (RBFOX2, Homo sapiens, UniProt O43251-10, residues 100-194)
Notes: natural RNA segment, single round, ends assumed
Constant ends, left off below: GGGAGUUCUACAGUCCGACGAUC … UGGAAUUCUCGGGUGCCAA
Target sequence (chain): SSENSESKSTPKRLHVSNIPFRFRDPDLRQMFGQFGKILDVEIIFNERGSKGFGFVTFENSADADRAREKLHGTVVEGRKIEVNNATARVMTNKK
Strand = AUAGACAAAACCUUUAUCCCGCGUGCUUUGCUUCACCUUGUGCUAUAUAGCUCUUUGGCUCGUGAACCUAAUUGUAAACUUUCAGGUAUUUUUGUACAAAUAAGGGACUG; result = 0.6
Strand = UUUCUCAGGUGUGAAUCAACUUCUUGGGCCUUGGCUCUGAGUUGGAAAAGGUUUUAGAAAAAGUGAAGAGCUGGAAUGUGGGGGAAAAUAAAAAGCUUUUUUGCCCAGUG; result = 0.773
Strand = GAAAUUGUAGAUGUUUUUAGAAAAACUUGUGAAUGAAAAUGAAUCCAAGUGUUUCAUGUGAAGAUGUUGAGCCAUUGCUAUCAUGCAUUCCUGUCUCAUGGCAGAAAAUU; result = 3.22
Strand = AUGCUUUGUAUUUCUUUCUUUAAAAAAUUUACUUUAAAGAAGAAGCCACUUGAACCUUCAAUAAAGGCUGUUGCCUAAACAUGGCGUACUUCAUCUGUUCCCGCCUCUGC; result = 0.211
Strand = ACUUGCCUCAUUUCCCUAUCUUCUCCCCCACGGUAUCCUAAACUUUAGACUUCCCACUGUUCUGAAAGGAGACAUUGCUCUAUGUCUGCCUUCGACCACAGCAAGCCAUC; result = 0.695
Strand = GGACUCUGCUCAGCCCUCUGUAUAUCACUGUCAGGGUGGGUACGGCUCAUUGGUUCUGAUUUGCCCACUAAGGGUACAUGUGCGCUUAGUACAUUUGUAAAUACUCAGUU; result = 0.181
Strand = ACCUCUGCUGUGUGUCUCUGCCAAUCUGCUGGGCUGGUCCCUCUCAUUUUUACCAGUCUGAGUGACAGGUCCCCUUCGCUCAUCAUUCAGAUGGCUUUCCAGAUGACCAG; result = 0.396
Strand = GGUUAGCAAAUGAUGUAAAAGAAGCUUUAUUGUCUAGUUGUUUUUUUUCCCCCAAGACAAAGGCAAGUUUCCCUAAGUUUGAGUUGAUAGUUAUUAAAAAGAAAACAAAA; result = 0.966
Strand = UUUGCAAAGUGACUCUGACUAACGCGGUUAAGAACAUCUGAACUUGGUUUCCCAAAUGACUCAGUUUUUGCUUUCUUUUCUGAAGCCCGAGUGCUAGGUAGGAAUGGCCA; result = 0.387
Strand = UAUGGCUGCCAUUCUCUUCAGCCCUCGCUCUCCCCUUUCCACAGCCUCCACCCCUGACCCCCAUCCUCUUUUCCUACCUCUCUGUUUGGUUUAGAAAUUGCUCAAUAAGU; result = 0.565
Strand = GUAUUAACAAAACCAAAGGACACAAGGGUGCAAGCCCCAUUCACGGCCUGGCAUGCAGCUUGUCCUUGCUCCUGGAACCUGGCAGGCCCUGCCCAGCCAGCCAUCGGAAG; result = 0.436
Strand = UUGAAACUAUUAUACUUUGAGUUUUAGAUUGGCCAAAUACAUUAAUGUAGUUAAAUUCAUCUUUAAAGUACACAUAUGUGCCUAGAGCCAAAAAAUAAUAAUGAUUUAAU; result = 0.577

Block 2 — method: protein-binding microarray; molecule type: double-stranded DNA, one strand shown; sample: in vitro; tested at: 250 nM; notes: 60-bp whole probe; added: salmon DNA 0.4 mg/ml; relative to: random background probes; direction: higher = stronger binding; measurement: log fluorescence; constant ends, left off below: GCCTAGCAC … GTCTTGATTCGCTTGACGCTGCTG
Target: Interferon regulatory factor 5, full length, phosphomimetic (IRF5, Homo sapiens, UniProt Q13568-2, residues 1-514, K96S/S451D/S453D/S456D/S462D)
Strand = GACGGCCTCCTTCTCCTGACGTGCTAG; result = -0.497 z-score
Strand = TAGCGTATATTCCCTAGAATAGTGCTA; result = 0.0662 z-score
Strand = ACCCATTGAGATTTCCATTAGTGCTAG; result = 0.0204 z-score
Strand = GGTCCAACAAACAGATCCATGTGCTAG; result = -0.287 z-score
Strand = GACGATTTTAGTTCCGAGACGTGCTAG; result = 0.506 z-score
Strand = TTTTTTTTGCAAGCTAAAAAAGTGCTA; result = 1.11 z-score
Strand = TTAGGCATCGACTTTCGGTTAGTGCTA; result = 9.6 z-score
Strand = TCACATTACAGCTATTTTACTGTGCTA; result = 0.936 z-score
Strand = GACGGTTTCCTTTCACTGACGTGCTAG; result = 3.13 z-score
Strand = GACGGTCTCCATTTCCTGACGTGCTAG; result = 0.0359 z-score
Strand = TTAGAACTGGGACTGGATTAGTGCTAG; result = -0.346 z-score
Strand = TTAGATATCAGTATCGCTTAGTGCTAG; result = 3.92 z-score
Strand = AAGGAAATCGGTGATCAGTCTGTGCTA; result = 0.134 z-score
Strand = CTCTGCTTGGGTCTGGGTATGTGCTAG; result = -0.535 z-score
Strand = TTAGTACTGCTTCTCCTTTAGTGCTAG; result = 0.194 z-score
Strand = TCATTTATGGTTTTTTTACTGTGCTAG; result = 0.785 z-score
Strand = GACGAACGGAGTCTCGAGACGTGCTAG; result = -0.384 z-score

Block 3 — method: universal PBM; molecule type: double-stranded DNA, one strand shown; sample: in vitro; tested at: not given; direction: higher = stronger binding; measurement: E-score
Target: Sal-like protein 4, full length isoform B (SALL4, Homo sapiens, UniProt Q9UJQ4-2, residues 1-616)
Notes: 8-mer, flanks averaged, mean of replicates
Construct (chain): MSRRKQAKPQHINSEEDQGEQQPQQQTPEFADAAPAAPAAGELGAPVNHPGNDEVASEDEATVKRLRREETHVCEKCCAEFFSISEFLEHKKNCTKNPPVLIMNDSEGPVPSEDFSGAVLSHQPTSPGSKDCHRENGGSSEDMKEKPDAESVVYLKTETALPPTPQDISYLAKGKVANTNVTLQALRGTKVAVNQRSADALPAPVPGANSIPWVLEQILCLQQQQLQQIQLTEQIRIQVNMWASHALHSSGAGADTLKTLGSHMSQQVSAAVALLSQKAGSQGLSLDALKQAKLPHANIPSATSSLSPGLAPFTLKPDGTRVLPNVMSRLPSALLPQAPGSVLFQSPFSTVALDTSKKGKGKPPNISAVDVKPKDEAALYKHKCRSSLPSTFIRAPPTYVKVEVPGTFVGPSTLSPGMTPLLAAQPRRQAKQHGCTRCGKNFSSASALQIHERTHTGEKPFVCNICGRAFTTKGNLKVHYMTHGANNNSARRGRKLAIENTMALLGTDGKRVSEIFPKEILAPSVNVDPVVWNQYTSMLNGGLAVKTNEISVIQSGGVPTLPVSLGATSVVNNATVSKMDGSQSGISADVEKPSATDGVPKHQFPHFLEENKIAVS
Strand = GCCGTCGC; result = -0.328
Strand = GCGTATCC; result = -0.247
Strand = AAAAAGCG; result = 0.174
Strand = AAGTAACT; result = 0.142
Strand = GCTAGGAC; result = -0.0496
Strand = ATATTTGG; result = 0.356
Strand = GCGGCCCA; result = -0.307
Strand = ATCCCTCA; result = -0.0204
Strand = ACTAATCT; result = 0.0584
Strand = CCTAAGCA; result = -0.0574
Strand = GCCCAACC; result = 0.0254
Strand = AGTCTTCC; result = -0.132
Strand = GTTTGTGA; result = 0.0157
Strand = TAACCTGA; result = 0.0199
Strand = CCTACAAA; result = 0.114
Strand = GTATTCAC; result = 0.183
Strand = ACGCACAA; result = 0.0957
Strand = AGACTTGC; result = -0.0328
Strand = GACTCGAA; result = -0.156
Strand = CGGCTTTA; result = -0.00444
Strand = GGGCAGCA; result = -0.352
Strand = AATGCTGC; result = 0.0922
Strand = AGAGAGCC; result = -0.225
Strand = AGCGACAT; result = 0.0358
Strand = AGGGTCGC; result = -0.24

Block 4 — target: CCNB3, cyclin fold, Cln2 fusion (human); method: yeast growth competition, sequencing; sample: yeast; notes: weak parent motif; relative to: not given; direction: higher = stronger binding; measurement: normalised enrichment score
Parent: CDKN1C docking peptide (human); TSACRSLFGPVDH; partner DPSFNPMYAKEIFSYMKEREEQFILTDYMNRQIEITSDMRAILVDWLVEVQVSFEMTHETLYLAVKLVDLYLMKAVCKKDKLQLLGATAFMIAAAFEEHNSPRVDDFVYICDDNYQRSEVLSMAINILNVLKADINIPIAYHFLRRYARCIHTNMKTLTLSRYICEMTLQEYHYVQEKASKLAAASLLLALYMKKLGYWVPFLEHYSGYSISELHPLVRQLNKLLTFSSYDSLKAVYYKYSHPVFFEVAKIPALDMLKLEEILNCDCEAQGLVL
Variant = TAACRSLFGPVDH [S2A]; result = 0.672
Variant = TSACRSLLGPVDH [F8L]; result = 0.106
Variant = TSACRSLFGPVAH [D12A]; result = 0.436
Variant = TSACRSLFGAVDH [P10A]; result = 0.417
Variant = TSACASLFGPVDH [R5A]; result = 0.135
Variant = TSACRSAFGPVDH [L7A]; result = -0.0278
Variant = TSACRSLAGPVDH [F8A]; result = 0.127

Block 5 — method: DHFR PCA, deep sequencing; sample: yeast; added: (+)-ABA 0.032 µM; relative to: wild-type fitted maximum; direction: higher = stronger binding; measurement: relative binding score
Target: ABI1, truncated, D143A, DHFR fusion (Arabidopsis thaliana)
Notes: methotrexate growth selection, single substitutions
Parent: PYL1, truncated, DHFR fusion (Arabidopsis thaliana); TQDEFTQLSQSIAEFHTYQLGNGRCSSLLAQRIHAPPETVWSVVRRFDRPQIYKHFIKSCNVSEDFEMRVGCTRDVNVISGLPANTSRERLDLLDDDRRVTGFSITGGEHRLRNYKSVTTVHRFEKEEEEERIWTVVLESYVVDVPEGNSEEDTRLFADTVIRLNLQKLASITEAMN
Variant = Y141W; result = -5.5%
Variant = G21K; result = 21.7%
Variant = N22C; result = 8.46%
Variant = T120P; result = 9.14%
Variant = F66G; result = 11.7%
Variant = E125G; result = 36.8%
Variant = E14P; result = -3.88%
Variant = V142E; result = 4.84%
Variant = P50G; result = -3.16%
Variant = E139G; result = 0.0895%
Variant = A35T; result = 0.639%
Variant = A84E; result = 19.5%
Variant = T1G; result = 19.4%
Variant = E128K; result = 24.2%

A few entries again (block 3):
Strand = AAAAAGCG; result = 0.174
Strand = AAGTAACT; result = 0.142
Strand = GGGCAGCA; result = -0.352
Strand = AATGCTGC; result = 0.0922
Strand = GACTCGAA; result = -0.156
Strand = GCCGTCGC; result = -0.328
Strand = AGGGTCGC; result = -0.24
Strand = ATATTTGG; result = 0.356
Strand = AGCGACAT; result = 0.0358
Strand = GCTAGGAC; result = -0.0496
